Measurements collected from several papers.
Protocols differ between the studies behind these lines.
Target: Epithelial discoidin domain-containing receptor 1 (DDR1, Homo sapiens, UniProt Q08345)

For `COc1cc(Nc2nccc(-c3cnn4nc(OC)ccc34)n2)cc(C(F)(F)F)c1`, the remaining binding was 100% (binding, competition with immobilised ligand; 1 µM).
For `C=CC(=O)N1CCc2ccc(-n3c(=O)ccc4cnc5ccc(-c6cnn(C)c6)cc5c43)cc21`, the remaining binding was 100% (KINOMEscan; 1 µM; relative to: DMSO control).
Under “activity vs control”, `CNC(=O)C[C@H](Cc1ccc(C#N)cc1)NC(=O)c1cc(-c2ccc(CN[C@H](C)c3ccc(C)cc3)o2)ccc1Cl` is recorded as 106% (enzyme activity, inhibitor; 1 µM).
With `Cc1cnc2nc1Nc1cccc(c1)COC/C=C/COCc1cc(ccc1OCCN1CCOCC1)N2` the remaining binding was 75% (binding; 0.1 µM).
For `C=CC(=O)N1CCCC(n2c(=O)c3ncccc3n(Cc3ccc(Oc4ccccc4)cc3)c2=O)C1` (centres unmarked), the remaining binding was 90% (cell-free assay, competition with immobilised ligand; 1 µM).
With `Cc1cccc(O[C@H]2CCC[C@@H](C(C)CNCc3ccncc3)C2)c1` (relative stereo) the inhibition was -1% (cell-free assay; 10 µM).
`Nc1ncc2c(n1)-c1c([nH]c3ccc(C4=CCOCC4)cc13)CCC2` gave a remaining binding of 96% (binding, competition with immobilised ligand; 1 µM).
With `NC(=O)C[C@H]1CCc2sc3ncnc(O[C@H]4CC[C@H](N5CCOCC5)CC4)c3c21` the inhibition was 39% (enzyme activity, inhibitor; 10 µM).
`CNC(=O)C1CCN(c2cc(C)c(F)cc2NC(=O)c2ccc(-c3cc(O)ccc3C)c(C)c2)CC1` has a remaining binding of 57% (binding, competition with immobilised ligand; 1 µM).
`C=CC(=O)N1Cc2nc(-c3cc(-c4cc(Cl)cnc4Cl)c(F)cc3F)n(-c3ccncn3)c2C1` gave an inhibition of -0.5% (cell-free assay; 1 µM).
The inhibition of `CN1CC[C@@H](COc2cnc(C#N)cc2-c2ccn3nc(NC(=O)C4CC4)cc3c2)C1` is reported as 54% (enzyme activity, inhibitor; 1 µM).
`O=C(Nc1ccc(Oc2ncnc3[nH]cc(-c4ccccc4)c23)c(F)c1)c1c2n(n(-c3cc(F)ccc3F)c1=O)CCCC2` gave an inhibition of 40% (enzyme activity, inhibitor; 0.5 µM).
`O=C(Cc1ccc(OCc2ccccc2)cc1)NC1(C(=O)O)CCN(C(=O)c2ccc(-c3cccc(Cl)c3)cc2)CC1` — result for “activity vs control”: 93% (enzyme activity, inhibitor; 10 µM).
`Nc1ncc(-c2cc(-c3cnn(CC(F)(F)F)c3)ncc2F)nc1C(=O)NC1CNCC(F)C1` (centres unmarked) gave a remaining activity of 73.2% (enzyme activity; 1 µM; relative to: DMSO control).

Repeated from above:
`Nc1ncc(-c2cc(-c3cnn(CC(F)(F)F)c3)ncc2F)nc1C(=O)NC1CNCC(F)C1` (centres unmarked) gave a remaining activity of 73.2% (enzyme activity; 1 µM; relative to: DMSO control).
`O=C(Cc1ccc(OCc2ccccc2)cc1)NC1(C(=O)O)CCN(C(=O)c2ccc(-c3cccc(Cl)c3)cc2)CC1` — result for “activity vs control”: 93% (enzyme activity, inhibitor; 10 µM).
